Measurements of several laboratories.
Every numbered part comes from another study and shows a few of its results, in no order. Numbers after ± are the reported error.
UniProt Q61473, sequence (whole entry, looked up): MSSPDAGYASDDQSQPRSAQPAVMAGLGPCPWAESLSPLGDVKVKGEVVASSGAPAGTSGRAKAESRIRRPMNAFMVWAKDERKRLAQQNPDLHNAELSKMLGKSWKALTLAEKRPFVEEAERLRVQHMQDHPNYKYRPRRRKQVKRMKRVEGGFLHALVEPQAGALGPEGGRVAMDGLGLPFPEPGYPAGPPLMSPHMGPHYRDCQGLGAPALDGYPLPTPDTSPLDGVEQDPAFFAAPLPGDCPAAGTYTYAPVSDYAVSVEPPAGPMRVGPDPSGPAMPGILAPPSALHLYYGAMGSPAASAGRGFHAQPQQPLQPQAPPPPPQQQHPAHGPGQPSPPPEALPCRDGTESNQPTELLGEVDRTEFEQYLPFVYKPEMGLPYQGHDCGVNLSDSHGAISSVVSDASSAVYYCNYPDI
UniProt P16591, sequence (whole entry, looked up): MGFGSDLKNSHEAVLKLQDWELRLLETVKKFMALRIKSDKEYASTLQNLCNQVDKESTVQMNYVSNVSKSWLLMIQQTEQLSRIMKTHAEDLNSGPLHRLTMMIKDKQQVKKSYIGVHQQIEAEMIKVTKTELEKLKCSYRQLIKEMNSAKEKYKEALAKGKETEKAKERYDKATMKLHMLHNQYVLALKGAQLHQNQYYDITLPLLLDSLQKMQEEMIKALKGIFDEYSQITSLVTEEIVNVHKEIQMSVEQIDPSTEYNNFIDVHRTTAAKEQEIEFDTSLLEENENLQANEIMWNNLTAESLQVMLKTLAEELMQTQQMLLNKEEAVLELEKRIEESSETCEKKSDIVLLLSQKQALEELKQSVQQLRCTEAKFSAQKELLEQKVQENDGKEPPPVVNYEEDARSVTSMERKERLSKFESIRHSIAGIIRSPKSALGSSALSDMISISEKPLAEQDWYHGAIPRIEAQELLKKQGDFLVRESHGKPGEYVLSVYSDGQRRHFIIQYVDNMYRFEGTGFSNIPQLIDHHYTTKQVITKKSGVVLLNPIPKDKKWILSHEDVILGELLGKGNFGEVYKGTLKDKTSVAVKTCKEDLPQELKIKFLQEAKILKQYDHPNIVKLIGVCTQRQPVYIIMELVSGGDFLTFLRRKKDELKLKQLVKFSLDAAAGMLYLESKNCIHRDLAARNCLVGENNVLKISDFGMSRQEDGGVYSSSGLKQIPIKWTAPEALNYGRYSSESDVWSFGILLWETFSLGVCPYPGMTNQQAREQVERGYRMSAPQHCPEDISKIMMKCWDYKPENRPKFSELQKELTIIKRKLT

Block 1 — method: RNA Bind-n-Seq; molecule type: RNA; medium: in vitro; tested at: 200 nM; setting: whole 134-nt RNA, ends assumed; with: 150 mM LiCl; reference: input library; reading: higher = stronger binding; all molecules: 7-deaza-guanosine replaces G
Target: Ras GTPase-activating protein-binding protein 1, full length (G3BP1, Homo sapiens, UniProt Q13283)
UniProt Q13283, sequence (whole entry, looked up): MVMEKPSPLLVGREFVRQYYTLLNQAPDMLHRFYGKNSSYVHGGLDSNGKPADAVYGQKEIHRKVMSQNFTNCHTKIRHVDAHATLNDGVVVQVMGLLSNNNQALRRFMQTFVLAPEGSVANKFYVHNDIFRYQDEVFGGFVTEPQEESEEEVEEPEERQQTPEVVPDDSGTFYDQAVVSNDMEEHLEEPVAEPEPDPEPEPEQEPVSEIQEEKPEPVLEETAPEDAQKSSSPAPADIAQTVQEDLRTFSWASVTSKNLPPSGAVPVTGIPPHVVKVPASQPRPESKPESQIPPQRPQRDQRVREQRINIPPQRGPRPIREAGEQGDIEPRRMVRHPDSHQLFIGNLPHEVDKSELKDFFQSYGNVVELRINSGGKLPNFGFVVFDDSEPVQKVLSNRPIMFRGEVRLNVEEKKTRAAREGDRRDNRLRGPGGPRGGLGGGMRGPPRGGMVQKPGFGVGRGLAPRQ
For `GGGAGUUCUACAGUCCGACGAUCCUCAAGUCCUGUGCUACACAUCGUAUGUACCGAAUCGGGGUUGGGUUGGGUUGGAAAGUAUUAUGUUACGCCGUUCGGAUCUGCACUUCCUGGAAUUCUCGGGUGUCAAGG`, the log2 enrichment was -0.0324.
The log2 enrichment of `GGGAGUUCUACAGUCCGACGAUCUCCUGUGCUACACAUCGUAUGUACCGAAUCAAAUUUUUUUAAACCCCCCCAAACCCAAAAAAGUAUUAUGUUACGCCGUUCGGAUCUGCAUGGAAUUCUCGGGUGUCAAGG` is reported as 1.3.
`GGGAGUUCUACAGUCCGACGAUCCCUGUGCUACACAUCGUAUGUACCGAAUCGGGGAAAAAAGGGGAAAAAAGGAAAAAAGGGAAAGUAUUAUGUUACGCCGUUCGGAUCUGCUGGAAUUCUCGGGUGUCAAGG` gave a log2 enrichment of 0.403.
With `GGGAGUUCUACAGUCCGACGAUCUUGUGUUCGUGAAUUGUAACUCCAGAAGCAAUGCCUGUACAAGCUCCACAAUGGACGGAUUUCCUCUCCUGCCCAAUUUGCACUCAGACUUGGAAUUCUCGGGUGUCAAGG` the log2 enrichment was 1.66.
For `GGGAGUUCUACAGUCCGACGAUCUUCCUCAAGUCCUGUGCUACACAUCGUAUGUACCGAAUCGGUGGAGGAGGAAAGUAUUAUGUUACGCCGUUCGGAUCUGCACUUCCAGCAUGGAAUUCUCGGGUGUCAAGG`, the log2 enrichment was -1.45.
`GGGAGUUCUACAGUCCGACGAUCUGGCCCUGGUGGCAUGCGGGGAGGAAGAGGUGGCCUCACGGAUCGUGGUGGUCCCGGUGGAAUGUUCAGAGGUGGCCGUGGUGGAGACAGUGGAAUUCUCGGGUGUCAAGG` has a log2 enrichment of 0.561.
For `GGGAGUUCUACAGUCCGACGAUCUCAUUCUAUACAGCCUUUUGUUUCAUUAGGAUCAGGCAGCUAGAGACAUGAAGAGGCUUGAAGAAAAGGACAAGGAAAGAAAAAACGUAAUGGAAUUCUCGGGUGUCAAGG`, the log2 enrichment was -2.1.
With `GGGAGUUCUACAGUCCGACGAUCAAGUCCUGUGCUACACAUCGUAUGUACCGAAUCGGGGUUUUGGGUUUUGGUUUUGGGAAAGUAUUAUGUUACGCCGUUCGGAUCUGCACUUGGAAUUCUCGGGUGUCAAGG` the log2 enrichment was -0.735.

Block 2 — method: protein binding microarray; molecule type: double-stranded DNA, one strand shown; medium: in vitro; tested at: not given; reference: not given; reading: higher = stronger binding
Target: Histone acetyltransferase KAT6A, winged helix 1, GST fusion (KAT6A, Homo sapiens, UniProt Q92794, residues 1-85)
Setting: 8-mer, flanks averaged, mean of 2 arrays, mostly near background
Residues (chain): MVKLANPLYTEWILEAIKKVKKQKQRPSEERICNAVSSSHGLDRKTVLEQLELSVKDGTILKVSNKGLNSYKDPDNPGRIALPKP
The E-score of `CCGCGTTC` is reported as 0.353.
The E-score of `GTTGACGA` is reported as -0.155.
`AGCTAGGC` has an E-score of 0.0315.
`CTCCCGGC` has an E-score of 0.328.
The E-score of `AGCCAAAA` is reported as -0.207.
`ACCTGCAA` has an E-score of -0.133.
The E-score of `AGGTCAGA` is reported as -0.217.
With `AGAAATTC` the E-score was -0.107.

Single results of other studies
With `O=C(NC(NC(=S)Nc1ccc(F)c([N+](=O)[O-])c1)C(Cl)(Cl)Cl)C(c1ccccc1)c1ccccc1` (stereo not drawn) the remaining activity was 104% (FER (Homo sapiens, UniProt P16591); enzyme activity, inhibitor; 0.5 µM; reference: control).
With `GGCGGCGGCATTGTCCGGCGCGCGG (dsDNA)` the Kd was 2.76 ± 2.38 nM (Sox17 66-144 (Mus musculus, UniProt Q61473); EMSA; double-stranded DNA, one strand shown).

Excerpt of the above (block 2):
`AGCTAGGC` has an E-score of 0.0315.
The E-score of `CCGCGTTC` is reported as 0.353.
